# Published values collected from several papers.
# Compare with care: the assays were run in different laboratories. Numbers after ± are the reported error.
SMILES,test,test system,conditions,scale,measurement,result
CCCCN1C(=O)c2cccc3c(NCCCCCN4CCOCC4)ccc(c23)C1=O,,DMF,,,absorption maximum,440 nm
CN[C@H](CC(C)C)C(=O)N[C@H]1C(=O)N[C@@H](CC(N)=O)C(=O)N[C@H]2CN[C@H]3C(=O)N[C@H](C(=O)N[C@H](C(=O)NCCCNC(=N)N)c4cc(O)cc(O)c4-c4cc3ccc4O)[C@H](O)c3ccc(c(Cl)c3)Oc3cc2cc(c3O[C@@H]2O[C@H](CO)[C@@H](O)[C@H](O)[C@H]2O[C@H]2C[C@](C)(NCc3ccc(-c4ccc(Cl)cc4)cc3)[C@H](O)[C@H](C)O2)Oc2ccc(cc2Cl)[C@H]1O,,mouse,"intravenous, 50 mg/kg",,clearance,0.43 mL/min/kg
CN1CCC[C@]1(C)/C=C/S(=O)(=O)NC(=O)Nc1c2c(cc3c1CC(O)C3)CCC2 (some centres unmarked),,"human, plasma","oral, 50 mg twice daily of parent drug, day 1, metabolite of dosed drug",,AUC(0-tau),32000 ng·h/mL
CC(C)(C)[C@H](NC(=O)C(F)F)C(=O)N1C[C@H]2[C@@H]([C@H]1C(=O)N[C@H](C#N)C[C@@H]1CCCNC1=O)C2(C)C,,human liver microsomes,microsomes 0.5 mg/mL,,intrinsic clearance,30.5 µL/min/mg
CN1CCC[C@]1(C)/C=C/S(=O)(=O)NC(=O)Nc1c2c(cc3c1CCC3)CC=C2,,"human, plasma","oral, 100 mg twice daily of parent drug, day 1, metabolite of dosed drug",,AUC(0-tau),285000 ng·h/mL
O=C(O)/C=C\c1cc2ccoc2cc1O[C@@H]1O[C@H](CO)[C@@H](O)[C@H](O)[C@H]1O,post-procedure stability,rat plasma,"200 ng/mL, 3 h, room temperature",,accuracy,107%
COCC1CN(C2CCN(c3cc(OC)c(Nc4ncc(Br)c(Nc5ccc6c(c5P(C)(C)=O)OCCO6)n4)cc3C)CC2)C1,first-in-human trial,human,"oral, 30 mg once daily",treatment-related leading to dose suspension,adverse events,0%
CC(=O)N([O-])CCCCCNC(=O)CCC(=O)N([O-])CCCCCNC(=O)CCC(=O)N([O-])CCCCCN.[89Zr+4],,human plasma,"3 d, 37 °C",,intact complex,97.8 ± 1%
Cc1ccc(OCC(=O)N(Cc2cccs2)c2ccn[nH]2)cc1,,dog plasma,"750 ng/mL, 4 h, 37 °C, unit not given",baseline: time zero,remaining compound,97.7
COc1cccc(OC)c1-c1cc(C(=O)NC2(C(=O)O)C3CC4CC(C3)CC2C4)nn1-c1ccc(C(=O)N(C)CCCN(C)C(=O)[C@H](CCCCNC(=O)[C@H](CC(C)C)NC(=O)C2OC2C(=O)O)NC(=O)CN2CCN(CC(=O)[O-])CCN(CC(=O)[O-])CCN(CC(=O)[O-])CC2)cc1C(C)C.[177Lu+3] (mixture of isomers),,"mouse, HT-29 xenograft","4 h post injection, biodistribution",baseline: tumour over liver uptake,tumour-to-liver ratio,5.54
CC[C@H](C)[C@H](NC(=O)C[C@H](NC(=O)CN1CCN2CCN(CC1)CC(=O)[O][Al]([18F])[O]C(=O)C2)C(=O)O)C(=O)N[C@H]1CCc2cccc3c2N(C1=O)[C@H](C(=O)NCc1cn[nH]n1)C3,PET,C57BL/6J mice MC-38 tumour,"30 min post injection, with: anti-PD-1 antibody treatment",,tumour to muscle ratio,7.46
O=C(Nc1cccc(C(=O)N2CCC(c3nc(-c4ccccc4)n[nH]3)CC2)c1)c1ccccc1,,CD-1 mouse liver microsomes,"pH 7.4, with: NADPH",,"intrinsic clearance, scaled",340 mL/min/kg
CN1CCC[C@]1(C)/C=C/S(=O)(=O)NC(=O)Nc1c2c(cc3c1CCC3O)CCC2 (some centres unmarked),,"human, plasma","oral, 50 mg twice daily of parent drug, metabolite of dosed drug",baseline: day 14 over day 1,AUC(0-tau) accumulation ratio,1.6
CC(C(=O)O)n1nc(Cn2cc3cc(OCC[18F])c(Cl)cc3n2)c2ccccc2c1=O (racemic),,"rat, muscle",1 h,,tracer uptake,0.03 %ID/g
CCCCN1C(=O)c2cccc3c(NCCN4CCOCC4)ccc(c23)C1=O,,toluene,,,absorption maximum,420 nm
CC(C)(O)c1ncc([S@](N)(=O)=NC(=O)Nc2c3c(cc4c2CCC4)CCC3)s1,,healthy human,"oral, 10 mg single dose, capsule formulation",,nervous system adverse events,17%
CC(C)C[C@H](NC(=O)[C@H](CCCNC(=N)N)NC(=O)[C@H](Cc1ccccc1)NC(=O)[C@H](Cc1ccccc1)NC(=O)[C@@H](NC(=O)[C@H](COP(=O)(O)O)NC(=O)[C@@H](N)COP(=O)(O)O)[C@@H](C)O)C(=O)N[C@@H](Cc1ccccc1)C(=O)N[C@@H](CC(N)=O)C(=O)N[C@@H](CCCNC(=N)N)C(=O)N[C@@H](C)C(=O)N[C@@H](CCCCN)C(=O)N[C@@H](CCCNC(=N)N)C(=O)N[C@@H](Cc1c[nH]cn1)C(=O)N[C@@H](Cc1c[nH]cn1)C(=O)NCC(=O)N[C@@H](Cc1ccc(O)cc1)C(=O)N[C@@H](CCCCN)C(=O)N[C@@H](CCCNC(=N)N)C(=O)N[C@@H](CCCCN)C(=O)N[C@@H](Cc1ccccc1)C(=O)N[C@@H](Cc1c[nH]cn1)C(=O)O,HPLC-UV,human saliva,"1 h, 37 °C, with: initial 1 mg/mL",,peptide concentration,0.979 mg/mL
CCCCN1C(=O)c2cccc3c(NCCCN4CCOCC4)ccc(c23)C1=O,,chloroform,,,absorption maximum,435 nm
CCCC[C@H](NC(=O)COCCOCCNC(=O)CN1CCN(CC(=O)O)CCN(CC(=O)O)CC1)C(=O)N[C@H]1CC(=O)NCCCC[C@@H](C(N)=O)NC(=O)[C@H](Cc2c[nH]c3ccccc23)NC(=O)[C@H](CCCNC(=N)N)NC(=O)[C@@H](Cc2ccccc2)NC(=O)[C@H](Cc2c[nH]cn2)NC1=O [fluorine-18 labelled],,"C57 mice, B16/F10 melanoma, urine","intravenous, 0.37 MBq, 0.5 h",,urinary excretion,68.5 ± 3.74%
O=C(NS(=O)(=O)c1cccs1)c1cc2ccccc2n1Cc1ccc(Br)c2ccccc12,,"Sprague-Dawley rat, male","intravenous, dose not given, 0.5 h",,plasma concentration,482 ng/mL
CCC(=O)N(CC#N)S(=O)(=O)c1ccc(C)cc1,"chemical stability, HPLC-MS",borate buffered saline,"pH 10.2, no N-acetyl-lysine",,degradation rate constant,14.7 h⁻¹
CC(CCC(=O)NCC(=O)O)C1CCC2C3CCC4CC(OC5OC(C(=O)O)C(O)C(O)C5O)CCC4(C)C3CC(O)C12C (centres unmarked),,"human, plasma",baseline,,mean daily plasma concentration,0.108 ± 0.024 µM
O=C(Nc1cnccc1-c1ccc([18F])cc1)c1ccnc(NC(=O)C2CC2)c1,PET imaging,"FVB/NJ mice, both sexes, brain","intravenous, 60 min post-injection",,median SUV,0.16
CN([O-])C(=O)CN1CCNCCN(CC(=O)N(C)[O-])CC1.[89Zr+4],,"mouse, spleen","intravenous, 4 h",,tracer uptake,0.1 %ID/g
C=C[C@]1(C)C[C@@H](OC(=O)CSc2ccc(NC(=O)c3ccco3)cc2)[C@]2(C)[C@H](C)CC[C@]3(CCC(=O)[C@H]32)[C@@H](C)[C@@H]1O,,"M. gallisepticum-infected chickens, plasma","intramuscular, 5 mg/kg single dose",,central volume (V1/F),7.39 L/kg
O=C(O)[C@H]1O[C@@H](N(Cc2ccc(C(F)(F)F)nc2)c2ccc(Cc3c[nH]c4ncc(Cl)cc34)cn2)[C@H](O)[C@@H](O)[C@@H]1O,,"human, male, plasma","oral, 400 mg of [14C]-pexidartinib single dose, as metabolite",,AUCinf,96100 ng·h/mL
CCCCN1C(=O)c2cccc3c(NCCCCN4CCOCC4)ccc(c23)C1=O,,water,pH 6.0,,absorption maximum,449 nm
Cc1nc(N)nc2c1C(=O)N[C@@H](c1ccc(F)cc1-c1cccc(OCC[18F])n1)C2,ex vivo biodistribution,"C57BL/6 mice, lungs","intravenous, 1 MBq, 30 min",,SUV,1.39 ± 0.15
C=C(NC(=O)c1csc(-c2nc3c(cc2O)-c2nc(cs2)C(=O)NC(C(C)O)C(=O)NC(=C(C)OC)c2nc(cs2)C(=O)NC2c4nc(cs4)C(=O)NC(COC(=O)c4c5c6c(cccc6n4O)COC(=O)C(OC4CC(C)(O)C(N(C)C)C(C)O4)C2OC5)c2nc-3cs2)n1)C(N)=O (centres unmarked),,"ICR mice, Streptococcus pneumoniae ATCC 49169 infected, immunocompromised, blood","intravenous, 2 mg/kg/day once daily",,half-life,67.2 min
CC[C@H](C)[C@@H]1NC(=O)[C@H](Cc2ccc(O)cc2)NC(=O)CCCSC[C@@H](C(=O)N(CC(=O)N[C@@H](CC(C)C)C(=O)NCC(N)=O)Cc2ccc(F)cc2)NC(=O)[C@H](CC(N)=O)NC(=O)[C@H](CCC(N)=O)NC1=O,,human,"intranasal, 200 µg repeated doses",,drug-related headache,17%
CCCCCCCCCCCCCCCOC(=O)/C=C/c1ccc(O)c(O)c1,,red blood cells,concentration not given,baseline: Triton X-100,hemolysis,0.12%
O=C(Nc1cnccc1-c1ccc([18F])nc1)c1ccnc(NC(=O)C2CC2)c1,,"FVB/NJ mice, both sexes, liver","intravenous, 15 min, median, P-gp inhibitor pretreatment, with: tariquidar 15 mg/kg iv",,SUV,8.68
CC(C)(F)CC(NC(c1ccc(-c2ccc(S(C)(=O)=O)cc2)cc1)C(F)(F)F)C(=O)NCC#CBr (centres unmarked),,PBS,"100 µM, 23 h, pH 7.45, 37 °C, with: GSH 5 mM",,GSH adduct formation,47%
C=CC(=O)Nc1cc(Nc2nccc(-c3c[nH]c4ccccc34)n2)c(OC)cc1N(C)CCN(C)C,,human plasma,"5 h, storage stability, low QC sample",,recovery,91.3%
COC1C=COC2(C)Oc3c(C)c(O)c4c(c3C2=O)C2=NC3(CCN(CC(C)C)CC3)NC2=C(NC(=O)C(C)=CC=CC(C)C(O)C(C)C(O)C(C)C(OC(=O)Nc2cscn2)C1C)C4=O (centres unmarked),,"CD-1 mouse female, plasma","intravenous, 5 mg/kg",,clearance,2.47 mL/min/kg
CCCCN1C(=O)c2cccc3c(NCCCCCCCCCCN4CCOCC4)ccc(c23)C1=O,,DMSO,,,fluorescence lifetime,10.2 ns
COc1cccc(OC)c1-c1cc(C(=O)NC2(C(=O)O)C3CC4CC(C3)CC2C4)nn1-c1ccc(C(=O)NCCNC(=O)[C@H](CCCCNC(=O)[C@H](CC(C)C)NC(=O)C2OC2C(=O)O)NC(=O)CN2CCN(CC(=O)[O-])CCN(CC(=O)[O-])CCN(CC(=O)[O-])CC2)cc1C(C)C.[177Lu+3] (mixture of isomers),,"mouse, HT-29 xenograft","72 h post injection, biodistribution",baseline: tumour over liver uptake,tumour-to-liver ratio,4.53
Cc1c(Cc2ccc(Cl)c(O[C@@H](C)C(=O)O)c2)c2ccc(C(=O)N[C@@H](C)c3cc(F)cc(C(C)(C)C)c3)cc2n1C,metabolic stability,"mouse, liver microsomes",,,half-life,52 min
